# Experimental data gathered from unrelated publications.
# Target: Fibroblast growth factor receptor 4 (FGFR4, Homo sapiens, UniProt P22455)
# UniProt P22455, sequence (whole entry, looked up): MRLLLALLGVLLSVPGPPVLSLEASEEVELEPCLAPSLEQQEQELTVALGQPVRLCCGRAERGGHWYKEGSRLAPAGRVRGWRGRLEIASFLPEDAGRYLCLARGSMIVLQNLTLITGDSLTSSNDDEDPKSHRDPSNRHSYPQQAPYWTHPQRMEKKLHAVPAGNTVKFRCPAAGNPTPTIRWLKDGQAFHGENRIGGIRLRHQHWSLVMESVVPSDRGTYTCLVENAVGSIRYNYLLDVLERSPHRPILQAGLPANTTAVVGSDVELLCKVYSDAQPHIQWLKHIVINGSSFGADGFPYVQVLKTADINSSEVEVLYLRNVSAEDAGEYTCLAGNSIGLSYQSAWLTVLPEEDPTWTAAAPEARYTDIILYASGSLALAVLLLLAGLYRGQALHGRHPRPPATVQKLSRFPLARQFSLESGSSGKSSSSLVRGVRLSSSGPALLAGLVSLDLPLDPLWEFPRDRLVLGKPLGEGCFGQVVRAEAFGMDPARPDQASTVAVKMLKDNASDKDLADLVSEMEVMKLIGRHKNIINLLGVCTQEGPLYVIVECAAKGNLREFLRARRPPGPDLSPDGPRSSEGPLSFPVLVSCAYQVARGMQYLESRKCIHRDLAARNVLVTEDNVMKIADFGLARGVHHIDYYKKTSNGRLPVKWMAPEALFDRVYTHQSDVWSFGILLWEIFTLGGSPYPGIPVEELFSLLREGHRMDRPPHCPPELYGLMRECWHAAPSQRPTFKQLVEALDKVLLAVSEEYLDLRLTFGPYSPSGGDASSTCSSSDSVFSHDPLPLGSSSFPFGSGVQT
Structure (SMILES),assay,conditions,IC50 [µM]
Cc1ccc2oc(-c3c4c(N)n[nH]c(=O)c4nn3-c3ccc(NC(=O)/C=C/CN(C)C)cc3)c(C)c2c1,"enzyme activity, inhibitor, ELISA",,> 1
C=C(C)C(=O)Nc1ccc(-c2c(-c3ccc(Oc4cccc(C)n4)cc3)c3c(N)ncnc3n2C)cc1,Caliper mobility shift,"30 min preincubation, added: 100 µM ATP",8
O=C1Nc2ccc(-c3ccc(C(=O)N4CCCC4)cc3)cc2/C1=C/c1ccc(N2CCNCC2)cc1,"enzyme activity, inhibitor",,13.8
CCN1C(=O)N(c2cc(NC(=O)c3cccc(C(F)(F)F)c3)ccc2C)Cc2cnc(Nc3ccc(C)nc3)nc21,"enzyme activity, inhibitor, radiometric",,< 0.001
COCCOCCOc1cc2nccc(Oc3ccc(NC(=O)NC4CC4)c(Cl)c3)c2cc1C(N)=O,"enzyme activity, inhibitor",,> 0.1
CN1CCN(C(=O)c2ccc(-c3ccc4c(c3)/C(=C/c3ccc(N5CCOCC5)cc3)C(=O)N4)cc2)CC1,"enzyme activity, inhibitor",,18.6
Cc1nc2ccc(Cc3c[nH]c4ncc(C(F)(F)F)cc34)cc2o1,"enzyme activity, inhibitor",,> 3
O=C1Nc2ccc(-c3ccc(-c4ccc(O)cc4)cc3)cc2/C1=C/c1ccc(N2CCNCC2)cc1,"enzyme activity, inhibitor",,18
COc1cc(OC)cc(C(O)c2c[nH]c3ncc(C(F)(F)F)cc23)c1 (stereo not drawn),"enzyme activity, inhibitor",,> 3

# For quick reference, copied from above:
Structure (SMILES),assay,conditions,IC50 [µM]
CN1CCN(C(=O)c2ccc(-c3ccc4c(c3)/C(=C/c3ccc(N5CCOCC5)cc3)C(=O)N4)cc2)CC1,"enzyme activity, inhibitor",,18.6
